# Measurements pooled from the literature.
# Lines come from different studies, so protocols differ. Values joined by “and” are separate records of one study, mostly repeats; a detail may differ.
SMILES,tested on,test,system,setting,how to read,quantity,result
C[C@H](Oc1ccc(Br)cc1-c1ccon1)C(=O)O,,muscle velocity recovery cycle,"human, tibialis anterior muscle","400 mg once daily, first response peak at 15 Hz, multiple ascending dose",,difference from placebo,6.61%
CN(C)C(=O)c1cc2cnc(Nc3ccc(N4CCNCC4)cn3)nc2n1C1CCCC1,,"RNA-seq GSEA, measured: HALLMARK_FATTY_ACID_METABOLISM gene set",MB002 tumour,concentration not given,"reference: vehicle, direction not given",enrichment score,0.353
C[C@@H](NC(=O)N1C(=O)[C@H](Cc2ccnc(N)c2)[C@H]1C(=O)O)C1CCCCC1,,,"human, plasma","continuous intravenous infusion, 2.25 mg/kg/h, days 1 to 6 of 5-day infusion, mean",,maximum prothrombin time,13.7 s
OC(CCN1CCCCC1)(c1ccccc1)C1CC2C=CC1C2 (stereo not drawn),,resting-state EEG,healthy elderly humans,"oral, 4 mg, eyes open, LS mean",reference: baseline,"EEG beta power, O2 Pz, change in",-0.6%
CC(C)NCC(O)c1ccc(O)c(O)c1 (stereo not drawn),,,"ventricular cardiomyocytes, C57BL/6 mouse","dose not given, 0.512 s",,sarcomere length,1.5 µm
NC(=O)c1cnc2[nH]ccc2c1N[C@@H]1[C@@H]2CC3C[C@H]1C[C@@](O)(C3)C2,,"flow cytometry, measured: CD8+ central memory T cells","Japanese healthy subjects, peripheral blood","oral, 100 mg twice daily, day 7",,change from baseline,0.38%
O=C(O)CNC(=O)Cc1ccccc1,,,"ventricular cardiomyocytes, C57BL/6 mouse","dose not given, 0.708 s",,sarcomere length,1.72 µm
CO[C@H]1CC[C@H](N2C(=O)CNc3ncc(-c4ccc(C(C)(C)O)nc4)nc32)CC1,,flow cytometry,"stimulated B cells, human, blood","30 mg single dose, 3 h, median",reference: baseline,pS6RP change from baseline,-73.6%
Cc1nnc(S)s1,,"CoA-CPM signal reduction, CPM fluorescence thiol",cell-free biochemical,"assay interference counter-screen, added: CoA replacing acetyl-CoA",,IC50,> 125 µM
CS(=O)(=O)N(CC(=O)Nc1ccccc1C(=O)N1CCOCC1)c1ccc(Cl)cc1,"Cyclin-dependent kinase 2 (CDK2, Homo sapiens, UniProt P24941)",binding,,,,Kd,> 100 µM
O=S1(=O)C=C(Oc2ccc3ccccc3c2)c2ccccc21,,"CoA-CPM signal reduction, CPM fluorescence thiol",cell-free biochemical,"assay interference counter-screen, added: CoA replacing acetyl-CoA",,IC50,> 125 µM
O=C(O)CCC(=O)O.[2H]C([2H])([2H])Oc1cc(C)c2[nH]ccc2c1CN1CC[C@@H](C2CC2)C[C@H]1c1ccc(C(=O)O)cc1,,"EIA, measured: complement fragment Bb","human, plasma","125 mg twice daily, multiple ascending dose",,maximum inhibition,48.8%
CCCC(CCC)C(=O)Oc1cccc(C(O)CCN)c1.O=CO (stereo not drawn),,OCT at 500 µm from nerve head,"Abca4-/-Rdh8-/- mice, photic damage","oral, 10 mg/kg, 7 days, added: 10,000 lx light, 30 min",,ONL thickness,10.3 µm and 8.5 µm and 9.95 µm and 8.85 µm and 11 µm and 7.02 µm
C[C@H]1O[C@@H](O[C@H]2CC[C@@]3(C)[C@@H](CC[C@]4(C)[C@@H]3C=C[C@]35OC[C@@]6(CCC(C)(C)C[C@H]63)[C@@H](O)C[C@]54C)[C@]2(C)CO)[C@H](O)[C@@H](O[C@@H]2O[C@H](CO)[C@@H](O)[C@H](O)[C@H]2O)[C@H]1O,,"Western blot, measured: Mtor","chronic-plus-binge ethanol-fed mice, liver","dose not given, low dose, unit not given",reference: β-actin,protein level,1.36 and 0.709 and 0.876
Cn1cc(Nc2nccc(-c3ccc4c(c3)CN(C3COC3)CC[C@H]4NC(=O)c3cn(C(C)(C)C)nn3)n2)cn1,,measured: Phospholipase C Signaling,"splenic B cells, mouse","in vivo, 30 mg/kg, IgD-activated B cells","reference: vehicle, positive = activation",pathway activation z-score,3.66
CCO[C@H]1CCN(Cc2c(OC)cc(C)c3[nH]ccc23)[C@H](c2ccc(C(=O)O)cc2)C1,,measured: PNH-type erythrocytes,"PNH patients, blood","50 mg/200 mg, week 4, mean",,PNH red cell clone size,73.7%
CO[C@H]1C[C@@H]2CC[C@@H](C)[C@@](O)(O2)C(=O)C(=O)N2CCCC[C@H]2C(=O)O[C@H]([C@H](C)C[C@@H]2CC[C@@H](O)[C@H](OC)C2)CC(=O)[C@H](C)/C=C(\C)[C@@H](O)[C@@H](OC)C(=O)[C@H](C)C[C@H](C)/C=C/C=C/C=C/1C,,oral glucose tolerance test,healthy adult horses,"IV, 0.06 mg/kg, 60 min, test 4 h after single dose",,blood glucose,143 mg/dL
O=S1(=O)CC(S(=O)(=O)Nc2ccc(Cl)c(Cl)c2)c2ccccc21 (stereo not drawn),,"CoA-CPM signal reduction, CPM fluorescence thiol",cell-free biochemical,"assay interference counter-screen, added: CoA replacing acetyl-CoA",,IC50,> 125 µM
CSCCNc1nc(SCCC(F)(F)F)nc2c1ncn2[C@@H]1O[C@H](COP(=O)(O)OP(=O)(O)C(Cl)(Cl)P(=O)(O)O)[C@@H](O)[C@H]1O,,"platelet aggregation, light transmission aggregometry","human patients, platelet-rich plasma","dose not given, 3 h, aggregation above 46%, added: ADP 5 µM",,patients with high residual reactivity,84.2%
CC1=NN(c2ccccc2)C(=O)C1,,,"rat, MCAO/R model","intravenous, dose not given, daily dosing, measured day 3 after surgery",,cerebral blood flow,102%
OCC(O)CO,,targeted LC-MS metabolomics,"Mus musculus male wild type, liver","drinking water, 5% w/v, 2 days",,hexose phosphate concentration,1.01 mM and 0.508 mM and 0.722 mM and 0.19 mM
C=CC[C@@H]1/C=C(\C)C[C@H](C)C[C@H](OC)[C@H]2O[C@@](O)(C(=O)C(=O)N3CCCC[C@H]3C(=O)O[C@H](/C(C)=C/[C@@H]3CC[C@@H](O)[C@H](OC)C3)[C@H](C)[C@@H](O)CC1=O)[C@H](C)C[C@@H]2OC,,ELISA,rat,"intraperitoneal, 0.5 mg/kg/day, day 18",reference: vehicle,urinary EGF excretion,decreased
CC(C)n1c(C2CCNCC2)nc2c([N+](=O)[O-])c(Br)c(Br)cc21,,,"FLT3-mutated AML patients, bone marrow blasts",all dose levels,,cycles to maximum reduction,5 cycles
CCCCc1nc2c(N)nc3ccccc3c2n1Cc1ccc(CN)cc1,,"CD86 expression, flow cytometry","CD20+ B cells in PBMC, human",100 or 1000 nM,,CD86 induction,increased

# Repeated from above:
SMILES,tested on,test,system,setting,how to read,quantity,result
CC1=NN(c2ccccc2)C(=O)C1,,,"rat, MCAO/R model","intravenous, dose not given, daily dosing, measured day 3 after surgery",,cerebral blood flow,102%
OCC(O)CO,,targeted LC-MS metabolomics,"Mus musculus male wild type, liver","drinking water, 5% w/v, 2 days",,hexose phosphate concentration,1.01 mM and 0.508 mM and 0.722 mM and 0.19 mM
